Assay results of several laboratories.
Each numbered part is a random draw from the data of one study; scales do not carry over between parts.

Sample 1 — method: protein binding microarray; form: double-stranded DNA, one strand shown; sample: in vitro; concentration: not given; reference: not given; reading: higher = stronger binding
Target: Histone acetyltransferase KAT6A, both winged helices, GST fusion (KAT6A, Homo sapiens, UniProt Q92794, residues 1-181)
Notes: 8-mer, flanks averaged, mean of 2 arrays, mostly near background
Construct (chain): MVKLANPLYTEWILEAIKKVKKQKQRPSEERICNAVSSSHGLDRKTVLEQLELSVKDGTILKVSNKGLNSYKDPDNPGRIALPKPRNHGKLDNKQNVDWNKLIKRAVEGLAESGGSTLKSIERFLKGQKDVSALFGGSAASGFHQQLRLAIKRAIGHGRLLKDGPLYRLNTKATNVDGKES
`AGATCCCA` gave an E-score of -0.249.
`ATAGTTTG` has an E-score of -0.05.
For `GTGACCGA`, the E-score was 0.111.
`AACCAAGA` gave an E-score of -0.195.
`CTGATTTA` has an E-score of -0.123.
For `CGCGCCAG`, the E-score was 0.316.
For `AACCGTGA`, the E-score was 0.11.
For `CGAAACCG`, the E-score was 0.16.
For `AAAGGCCT`, the E-score was -0.034.
`ATTAATTG` has an E-score of -0.0554.
`TAATGACA` has an E-score of -0.116.
`CCACAAGA` gave an E-score of -0.212.
For `GAGTCGAC`, the E-score was 0.0682.
`CGCATATC` gave an E-score of 0.216.
`CTTCGGGC` gave an E-score of -0.0216.
The E-score of `AAGGATTA` is reported as -0.172.
`AGTCGTAC` has an E-score of -0.0369.
With `ATTTCGGG` the E-score was -0.108.
For `CACGTAAG`, the E-score was -0.0956.
For `AAGACCCT`, the E-score was -0.144.
The E-score of `ACACCTAG` is reported as -0.197.
`CAGGTCCG` has an E-score of 0.0189.
For `ATTTCATG`, the E-score was -0.133.
For `CAACCGAG`, the E-score was -0.0175.
For `CGCGGCGA`, the E-score was 0.371.

Sample 2 — method: aptamer microarray, sandwich; form: DNA with 2'F-ANA; sample: in vitro; concentration: 200 nM; added: Cy3 exosite-II aptamer, 400 nM; reading: higher = stronger binding; strand: GGTTGGTGTGGTTGG
Target: Prothrombin, mature alpha-thrombin (F2, Homo sapiens, UniProt P00734)
Notes: whole 15-mer aptamer, many near background
`2'F-ANA at 2 3 4 6 8 9 10 12 13 14 15` — result for “mean fluorescence intensity”: 152 a.u.
For `2'F-ANA at 2 6 8 9 10 11 12 14`, “mean fluorescence intensity” read 80.3 a.u.
`2'F-ANA at 5 6 7 8 9`: “mean fluorescence intensity” 86 a.u.
For `2'F-ANA at 3 5 7 8 10 11 12`, “mean fluorescence intensity” read 69.5 a.u.
For `2'F-ANA at 1 2 5 8 12 13`, “mean fluorescence intensity” read 84.4 a.u.
`2'F-ANA at 3 5 8 9 12 13 14`: “mean fluorescence intensity” 151 a.u.
`2'F-ANA at 1 5 7 8 13` — result for “mean fluorescence intensity”: 48.5 a.u.
`2'F-ANA at 3 6 7 8 9 11 12 13 14` — result for “mean fluorescence intensity”: 564 a.u.
Under “mean fluorescence intensity”, `2'F-ANA at 1 2 4 7 8 9 14 15` is recorded as 54.8 a.u.
Under “mean fluorescence intensity”, `2'F-ANA at 1 5 6 7 8 9 11 12 14 15` is recorded as 48.1 a.u.
For `2'F-ANA at 1 2 3 4 5 6 7 8 10 11 15`, “mean fluorescence intensity” read 178 a.u.
For `2'F-ANA at 1 4 7 8 9 12 14 15`, “mean fluorescence intensity” read 73.9 a.u.
`2'F-ANA at 1 3 5 7 8 9 10 11 12 13 15` — result for “mean fluorescence intensity”: 51.9 a.u.
`2'F-ANA at 1 4 6 9 12 14 15`: “mean fluorescence intensity” 55.3 a.u.
Under “mean fluorescence intensity”, `2'F-ANA at 3 4 5 9 12 13` is recorded as 107 a.u.
`2'F-ANA at 2 5 6 7 8 10 11` — result for “mean fluorescence intensity”: 48.1 a.u.
`2'F-ANA at 5 6 7 9 10 11 12 13 15` — result for “mean fluorescence intensity”: 48.5 a.u.

Sample 3 — method: RNA Bind-n-Seq; form: RNA; sample: in vitro; concentration: 200 nM; notes: whole 134-nt RNA, ends assumed; added: 150 mM LiCl; reference: input library; reading: higher = stronger binding; each molecule: 7-deaza-guanosine replaces G
Target: Fragile X messenger ribonucleoprotein 1, C-terminal low-complexity region (Fmr1, Mus musculus, UniProt P35922)
`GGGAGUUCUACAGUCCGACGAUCUGGCCCUGGUGGCAUGCGGGGAGGAAGAGGUGGCCUCAUGGAUCGUGGUGGUCCCGGUGGAAUGUUCAGAGGUGUCCGUGGUGGAGACAGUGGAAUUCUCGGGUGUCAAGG` has a log2 enrichment of 0.0609.
For `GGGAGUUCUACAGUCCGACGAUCCGCAGAAGUCGCGUGUCUAGGUGAGUCGCGGUGGGUCCUCGCUUGCAGUUCAGCGACCACGGUGGGUACCGUUUUUGCGAGGAUUGUUUGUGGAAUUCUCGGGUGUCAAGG`, the log2 enrichment was -1.47.
`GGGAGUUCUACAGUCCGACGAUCAAGUCCUGUGCUACACAUCGUAUGUACCGAAUCGGGGCCCGGGGCCCGGGCCCGGGGAAAGUAUUAUGUUACGCCGUUCGGAUCUGCACUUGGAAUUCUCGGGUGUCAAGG` gave a log2 enrichment of -2.28.
`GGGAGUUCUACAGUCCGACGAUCACCAUGCAGGUGGGCAUCUUUGGGAAGUGGGGCAAGGGGGGGAUAGGGAGGGGGGUAACACUUUGGGAACAGGUGGUCCCAGGUCAAAUCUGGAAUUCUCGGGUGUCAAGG` has a log2 enrichment of 1.19.
`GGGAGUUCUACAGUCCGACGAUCUCCUGUGCUACACAUCGUAUGUACCGAAUCGGGGAAAAAAGGGAAAAAAGGGAAAAAAGGAAAGUAUUAUGUUACGCCGUUCGGAUCUGCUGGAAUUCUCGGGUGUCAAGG` gave a log2 enrichment of 0.229.
With `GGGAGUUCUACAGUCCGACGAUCACCAUGCAGGUUGGCAUCUUUGGGAAGUGGGGCAAGGGGGGGAUAGGGAGGGGGGUAACACUUUGGGAACAGGUGGUCCCAGGUCGUUUCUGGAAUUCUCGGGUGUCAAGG` the log2 enrichment was 1.5.
For `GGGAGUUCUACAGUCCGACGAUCACCAUGCAGGUGGGCAUCUUUCGGAAGUGGGGCAAGGGGGGGAUAGGGAGGGGGGUAACACUUUGGGAACAGGUGGUCCCAGGUCGUUUCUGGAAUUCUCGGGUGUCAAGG`, the log2 enrichment was 1.26.
`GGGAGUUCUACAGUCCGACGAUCUCCUCAAGUCCUGUGCUACACAUCGUAUGUACCGAAUCGGGAGGAGGGAGGAAAGUAUUAUGUUACGCCGUUCGGAUCUGCACUUCCAGCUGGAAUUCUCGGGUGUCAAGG` has a log2 enrichment of -2.24.

Sample 4 — method: RNA Bind-n-Seq; form: RNA; sample: in vitro; concentration: not given; reference: input RNA pool; reading: higher = stronger binding
Target: RING finger protein unkempt homolog, zinc fingers 1-6, GST-SBP tag (UNK, Homo sapiens, UniProt Q9C0B0, residues 30-357)
UniProt Q9C0B0, sequence (30-357, looked up): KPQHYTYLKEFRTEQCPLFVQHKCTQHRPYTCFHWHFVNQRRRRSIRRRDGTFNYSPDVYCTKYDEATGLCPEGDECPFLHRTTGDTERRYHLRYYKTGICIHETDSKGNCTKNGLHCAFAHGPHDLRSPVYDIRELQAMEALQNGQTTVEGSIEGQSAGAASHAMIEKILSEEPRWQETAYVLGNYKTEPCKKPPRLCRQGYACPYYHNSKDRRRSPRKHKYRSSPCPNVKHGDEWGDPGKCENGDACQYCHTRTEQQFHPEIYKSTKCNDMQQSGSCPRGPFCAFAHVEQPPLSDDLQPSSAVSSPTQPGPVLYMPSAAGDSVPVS
Notes: RNA with constant flanks, human and mouse sites, ends assumed
The bound/input enrichment of `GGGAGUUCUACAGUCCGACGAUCUCUCUCUCUUCUGCAGGGCCACCACCAGUUCUCCCCCCACCUUCCCUGUCUUCUGCAGGGCCACCACCAGUUCUUCCCCCACCAUCUCUCUCUUCAACAGCACCUCCACCUGUCAUGCCCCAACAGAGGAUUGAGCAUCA` is reported as 1.72 ratio.
The bound/input enrichment of `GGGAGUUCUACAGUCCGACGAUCCUCCUUUACUUCCCAGAGAACUUCACAGAGACUCUGUCCUUCCAUGCAAAGGCUUCCUGAAAUAGGGAGACUGACUGAGUAGCUCAUUCUUGUGACUUACAGUGCCAACAUUUAAAAAAGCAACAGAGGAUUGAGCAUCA` is reported as 0.427 ratio.
The bound/input enrichment of `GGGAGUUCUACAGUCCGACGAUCGCACUGGAGGAACUCCUGCCAUUACCAGCUCCCUUCUUGCAGAAGGGAGGGGGAAACAUACAUUUAUUCAUGCCAGUCUGUUGCAUGCAGGCUUUUUGGCUUCCUACCUUGCAACAAAAUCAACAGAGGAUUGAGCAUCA` is reported as 0.104 ratio.
With `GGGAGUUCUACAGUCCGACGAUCACUGCCAUAGAACUUGCAGAGCUUCAGCCUCCUAUGUUUGACUUACACCCAAUGAGAGCAUUAUUUCUAAUGACAAAAAGCAAUUUUCAGCCUCCUAAACUAAAGGAUAAAAUGAAAUGGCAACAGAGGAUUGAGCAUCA` the bound/input enrichment was 0.234 ratio.
`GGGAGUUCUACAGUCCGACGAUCUUUAUUUAUGUCUUAUUUAUGGUUGAGGAAUUCAGAAAAGAGCCAGUGGAAAACAUGGAUGAUGUCAUCUACUAUGUGAAUGGCACUUACCGCCUGCUGGAGUUUCUUGUGGCCCUCUGUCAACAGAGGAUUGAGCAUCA` gave a bound/input enrichment of 0.476 ratio.
With `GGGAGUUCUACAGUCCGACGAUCGAGCCUUUAAUAUGUCCCCUUUGUAGAUCUAAGUGGAGAUCCCAUGACUUCUACAGCCAUGAGUUAUCAAGCCCCGUGGAGUCCCCCACCUCCCUGCGAGCUGUCCAGCAGCCAUCCUCCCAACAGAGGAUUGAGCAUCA` the bound/input enrichment was 0.395 ratio.
The bound/input enrichment of `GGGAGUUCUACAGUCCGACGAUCGAGGAGCGGAUGCUCUCGGCUGUGUCCCAGCAGGUGCAGUGCAUACAGGAAGCACUGCGUGAACAUUCCAACCCCAACUACGACAAGACCUCUGCCCCCAUUACUUGUGAGCUGCUGAACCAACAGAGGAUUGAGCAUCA` is reported as 0.46 ratio.
`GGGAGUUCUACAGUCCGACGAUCGAGCCAAGUCGGCAGUUUGUAAAGGACUCCAUUCGGCUGGUUAAAAGAUGCACUAAACCUGAUAGAAAAGAAUUCCAGAAGAUUGCCAUGGCAACAGCAAUAGGAUUUGCUAUAAUGGGACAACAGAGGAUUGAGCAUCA` has a bound/input enrichment of 0.461 ratio.

Repeated from above (sample 3):
For `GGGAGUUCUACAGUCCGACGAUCCGCAGAAGUCGCGUGUCUAGGUGAGUCGCGGUGGGUCCUCGCUUGCAGUUCAGCGACCACGGUGGGUACCGUUUUUGCGAGGAUUGUUUGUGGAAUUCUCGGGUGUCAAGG`, the log2 enrichment was -1.47.
`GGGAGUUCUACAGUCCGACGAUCUCCUCAAGUCCUGUGCUACACAUCGUAUGUACCGAAUCGGGAGGAGGGAGGAAAGUAUUAUGUUACGCCGUUCGGAUCUGCACUUCCAGCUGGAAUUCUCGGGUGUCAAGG` has a log2 enrichment of -2.24.
With `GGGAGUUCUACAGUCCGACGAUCACCAUGCAGGUUGGCAUCUUUGGGAAGUGGGGCAAGGGGGGGAUAGGGAGGGGGGUAACACUUUGGGAACAGGUGGUCCCAGGUCGUUUCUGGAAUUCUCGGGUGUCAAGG` the log2 enrichment was 1.5.
`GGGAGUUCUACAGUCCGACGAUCUCCUGUGCUACACAUCGUAUGUACCGAAUCGGGGAAAAAAGGGAAAAAAGGGAAAAAAGGAAAGUAUUAUGUUACGCCGUUCGGAUCUGCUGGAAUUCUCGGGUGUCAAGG` gave a log2 enrichment of 0.229.
`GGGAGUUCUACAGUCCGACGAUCACCAUGCAGGUGGGCAUCUUUGGGAAGUGGGGCAAGGGGGGGAUAGGGAGGGGGGUAACACUUUGGGAACAGGUGGUCCCAGGUCAAAUCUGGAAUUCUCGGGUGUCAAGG` has a log2 enrichment of 1.19.
